Assay results of several laboratories.
Each numbered part is a random draw from the data of one study; scales do not carry over between parts. “And” joins repeats or separate records; there may be more than shown. ± marks the error that the study gave.
UniProt P41145, sequence (whole entry, looked up): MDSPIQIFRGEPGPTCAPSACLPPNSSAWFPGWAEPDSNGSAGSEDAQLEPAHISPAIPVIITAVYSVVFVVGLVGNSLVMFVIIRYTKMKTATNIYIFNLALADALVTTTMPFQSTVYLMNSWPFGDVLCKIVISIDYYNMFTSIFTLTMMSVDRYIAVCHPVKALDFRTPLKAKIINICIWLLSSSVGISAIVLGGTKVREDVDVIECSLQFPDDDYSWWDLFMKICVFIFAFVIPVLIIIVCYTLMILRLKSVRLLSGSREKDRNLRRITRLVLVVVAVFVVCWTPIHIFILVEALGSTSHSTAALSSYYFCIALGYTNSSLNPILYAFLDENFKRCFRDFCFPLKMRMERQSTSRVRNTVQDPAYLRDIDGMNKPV

Block 1
SMILES: CCCCC[C@@H](O)CC(=O)N[C@H]1COC(=O)[C@H](CO)NC(=O)[C@H](Cc2ccccc2)NC(=O)[C@@H](Cc2c[nH]c3ccccc23)NC(=O)[C@@H](C(C)O)NC(=O)[C@H](CC(N)=O)NC(=O)[C@@H](C(C)C)NC(=O)[C@H](CC(C)C)NC(=O)[C@@H](Cc2ccc(O)cc2)N(C)C(=O)CNC(=O)[C@H](CO)NC(=O)[C@@H](CC(N)=O)NC1=O (some centres unmarked)
Organism: Staphylococcus aureus
Strain: USA300
Tested at: 2 x MIC
Measurement: viable cells
time = 60 min; value = 1900 CFU/mL and 1500 CFU/mL and 1700 CFU/mL
time = 240 min; value = 600 CFU/mL and 800 CFU/mL
time = 0 min; value = 4.8e+08 CFU/mL and 4.1e+08 CFU/mL and 4.3e+08 CFU/mL
time = 15 min; value = 5500 CFU/mL and 5300 CFU/mL and 5900 CFU/mL

Block 2
SMILES: Cn1cc(-c2cccc(CN3CCC4(CC3)COc3c4ccc4c3CN([C@H]3CCC(=O)NC3=O)C4=O)c2)cn1
Species: Crbn I391V mouse, MC-38 tumour
Measurement: tumour volume
dose = 30 mg/kg; time = day 11; with = anti-LAG3 antibody 10 mg/kg weekly; value = 361 mm3 and 171 mm3 and 807 mm3 and 608 mm3 and 381 mm3
route = oral, daily; dose = 30 mg/kg; time = day 15; notes = anti-PD1 combination study; value = 187 mm3 and 257 mm3 and 262 mm3 and 765 mm3 and 185 mm3
route = oral, daily; dose = 30 mg/kg; time = day 33; notes = anti-PD1 combination study; value = 2260 mm3 and 915 mm3 and 1320 mm3 and 2410 mm3 and 1690 mm3
dose = 30 mg/kg; time = day 32; with = anti-LAG3 antibody 10 mg/kg weekly; value = 1100 mm3 and 1340 mm3 and 144 mm3
dose = 30 mg/kg; time = day 25; with = anti-LAG3 antibody 10 mg/kg weekly; value = 961 mm3 and 41.4 mm3 and 417 mm3 and 878 mm3 and 512 mm3 and 2480 mm3
route = oral, daily; dose = 30 mg/kg; time = day 19; notes = anti-PD1 combination study; value = 256 mm3 and 1190 mm3 and 706 mm3 and 269 mm3 and 922 mm3
route = oral; dose = 30 mg/kg once daily; time = day 10; value = 68.5 mm3 and 288 mm3 and 124 mm3 and 125 mm3 and 246 mm3

Block 3
Compound: CC(C)(C)n1nc(-c2ccc(Cl)cc2)c2c(N)ncnc21
Cell line: L929
Method: CCK-8
Measurement: viability
observed = necroptosis protection; tested at = 15 µM; with = TNF-α-induced; value = 63.1%
tested at = 12.5 µM; with = zVAD; value = 80.1% and 66% and 79.7% and 80.8%
observed = necroptosis protection; tested at = 0.021 µM; with = TNF-α-induced; value = 15.1%
tested at = 12.5 µM; value = 56.3% and 60.1% and 69% and 64.5%
observed = necroptosis protection; tested at = 2.5 µM; with = TNF-α-induced; value = 61%
observed = necroptosis protection; tested at = 0.00229 µM; with = TNF-α-induced; value = 13.2%
observed = necroptosis protection; tested at = 0.625 µM; with = TNF-α-induced; value = 45.1%

Other studies, line by line
Structure (SMILES) = N=C(N)NCCCCCCN1CCC23c4c5ccc(O)c4OC2c2nc4ccccc4cc2CC3(O)C1C5 (centres unmarked); test = modified Racine scale; test system = C57BL/6J mice, male; setting = intracerebroventricular, 100 nmol, 25 min; scale = direction not given; measurement = seizure score; value = 0
Structure (SMILES) = N=C(N)NCCCCCN1CC[C@]23c4c5ccc(O)c4O[C@H]2c2[nH]c4ccccc4c2C[C@@]3(O)[C@H]1C5; tested on = Kappa-type opioid receptor, with Gi1 (OPRK1, Homo sapiens, UniProt P41145); test system = human cells; measurement = Emax; value = 61 ± 4%

For quick reference, copied from above (block 3):
observed = necroptosis protection; tested at = 0.625 µM; with = TNF-α-induced; value = 45.1%
